Measurements from different studies.
± marks the error that the study gave.

Structure (SMILES)	cell line	test	conditions	IC50 [µM]
Cc1c(C)c(C)[c-](C)c1C.O=Cc1ccc(-c2[c-]cccc2)nc1.[Cl-].[Ir+3]	A2780 cells	cell growth, SRB	24 h exposure, 72 h recovery	4.4 ± 0.4
Cc1cc(NC(=O)c2cccc(N)c2)ccc1Nc1nccc(-c2cccnc2)n1	SH-SY5Y MKK7-ACT	c-Jun phosphorylation, inhibitor, western blot, measured: phospho-c-Jun Ser73	6 h, together with: doxycycline	8.97 ± 2.68
CCn1nc2c(c1Nc1nc(-c3ccc(-n4cnc(C)c4)c(OC)n3)cs1)CCCC2	CHO APPwt/PS1 M146L	Aβ40 production		0.103 ± 0.004
O=C(CCl)Sc1nnc(-c2n[nH]c(=O)c3ccccc23)o1	HepG2 and MCF7	cell growth, MTT		5.5 to 15
Cc1c(C(=O)/C=C/c2ccco2)nnn1-c1c(Cl)cc(Cl)cc1Cl	THLE-2	cell growth or viability, MTT		42.3
CCC(CC)c1nc(-c2ccc(O)cc2O)cs1	HEK293T	cell growth, PrestoBlue	72 h	14.7
O=[N+]([O-])c1ccc(C=[N+]2N=C(Nc3ccccc3)[S][Pd-]2([Cl])[Cl])s1	CEM human lymphocytes	cell proliferation		30
Cc1cc(/C=C/C#N)cc(C)c1Oc1cc(Nc2ccc(C#N)cn2)nc2cnccc12	MOLT-3		48 h	84.7 ± 30.5
OCCCCCCCCOCCCc1cccnc1	WI26VA4	cell growth or viability, MTT	48 h	168
CCCC(CCC)C(=O)[O][Pt]([NH2])([NH2])([Cl])([Cl])[O]C(=O)C(C)c1ccc(CC(C)C)cc1 (centres unmarked)	C13 cisplatin-resistant	cytotoxicity, MTT	72 h	1.61 ± 0.42
COc1ccc(/C=C/C2=[N+]3C(=C(CO)c4c(C)cc(/C=C/c5ccc(OC)cc5)n4[B-]3(F)F)C(C)=C2)cc1	RPE-1	phototoxicity, resazurin	together with: 645 nm light, 9.00 J/cm2	0.2 ± 0.2
CCn1[c]([Au-][Cl])[n+](CC)c2ccc(C(=O)OC)cc21	RC-124 kidney epithelial	cell proliferation, crystal violet staining	96 h	7.2 ± 3.7
O=C1NCC(Cc2ccccc2)N(CC2CCCN2CC(CC2CCCCC2)N2CC(Cc3ccc(O)cc3)N(CCc3ccccc3)C(=O)C2=O)C1=O (centres unmarked)	WM-115	cell growth or viability, ATP luminescence	72 h	7
O=C1/C(=C/c2ccc(B(O)O)cc2)CC/C1=C\c1ccc(B(O)O)cc1	MCF7/HER2	cytotoxicity, MTT	24 h	62 ± 4.9
Cc1ccc(S(=O)(=O)c2c(-c3ccccc3)c3c(C)c4ccccc4n3c3ccccc23)cc1	LS174T	cell growth or viability, MTT	72 h	> 100
C=CC(OC(C)=O)c1ccc(OC(C)=O)c(OC)c1 (centres unmarked)	RT-112	cell growth or viability, MTT	24 h	10.9
CCC12CCc3c(c4ccccc4n3C)CCN(CC3OC31)C2 (centres unmarked)	BV-2	cell growth or viability, MTT		73.1
O=C(CCc1ccc(CNC(C(=O)OC2CCCC2)C2CCCCC2)cn1)NO (centres unmarked)	human CD14+ monocytes	M-CSF differentiation	4 h then washout, together with: M-CSF	0.118
CNC(=O)C1CCN(c2ccccc2NC(=O)c2ccc(-c3cc(O)ccc3C)c(C)n2)CC1	12Z	measured: PTGS2 mRNA	3 h, 30 min pretreatment, together with: IL-1β 0.05 ng/mL	1.3
C=C(C)C(=O)Nc1ccc(-c2c(-c3ccc(Oc4nccc(C)n4)cc3)c3c(N)ncnc3n2C)cc1	SNU-16	inhibitor, HTRF, measured: ERK phospho-Tyr202/204	2 h	0.004

Repeated from above:
Structure (SMILES)	cell line	test	conditions	IC50 [µM]
OCCCCCCCCOCCCc1cccnc1	WI26VA4	cell growth or viability, MTT	48 h	168
O=[N+]([O-])c1ccc(C=[N+]2N=C(Nc3ccccc3)[S][Pd-]2([Cl])[Cl])s1	CEM human lymphocytes	cell proliferation		30
